Results collected from several papers.
Lines come from different studies, so protocols differ. ± gives the spread as reported.

For `N[C@@H]1CCCC[C@H]1N.O=C1[O][Pt]2([O]C1=O)[O]C(=O)C(=O)[O]2`, “intact compound remaining” read < 45% (PBS; 24 h, pH 7.4, 37 °C).
`CC(=O)N[C@@H](CCCCN)C(=O)NCCC(=O)N[C@@H](Cc1ccccc1)C(=O)N[C@@H](CO)C(=O)N[C@@H](CO)C(=O)N[C@@H](CCCCN)C(=O)N[C@@H](CO)C(=O)N[C@@H](CCC(=O)O)C(=O)N[C@@H](Cc1ccc(O)cc1)C(=O)N[C@@H](CCC(N)=O)C(=O)N[C@@H](CC(C)C)C(=O)NCCOCCOCC(=O)N[C@@H](Cc1ccccc1)C(=O)N[C@@H](Cc1ccc(O)cc1)C(=O)N[C@@H](Cc1c[nH]c2ccccc12)C(=O)N[C@@H](CO)C(=O)N[C@@H](C)C(=O)N[C@H](C(=O)N[C@H](C(N)=O)[C@@H](C)O)C(C)C` — result for “intact peptide remaining”: 60% (RP-HPLC; 25% fetal bovine serum; 1 mg/mL, 42 h, 37 °C; baseline: initial amount).
`C[C@@H](O)[C@H](NC(=O)[C@@H]1CSSC[C@H](NC(=O)[C@@H](Cc2ccccc2)NC(=O)CN2CCN(CC(=O)O)CCN(CC(=O)O)CCN(CC(=O)O)CC2)C(=O)N[C@@H](Cc2ccc(O)cc2)C(=O)N[C@H](Cc2c[nH]c3ccccc23)C(=O)N[C@@H](CCCCN)C(=O)N[C@@H]([C@@H](C)O)C(=O)N1)C(=O)O` gave an intact radioligand of > 95% (radio-TLC; mouse serum; 5 d, 37 °C).
`O=C([O-])CN1CCN(CC(=O)[O-])CCN(CC(=O)NCC2CCC(C(=O)NC(Cc3ccc4ccccc4c3)C(=O)NCCCCC(NC(=O)NC(CCC(=O)O)C(=O)O)C(=O)O)CC2)CCN(CC(=O)[O-])CC1.[44Sc+3]` (centres unmarked) gave an intact complex of 97 ± 0.8% (transchelation stability; 2 h, 37 °C, with: DTPA 10 mM).
With `O=C(NCCCN(CCCCN(CCCNC(=O)c1cccc(=O)n1[O-])C(=O)c1cccc(=O)n1[O-])C(=O)c1cccc(=O)n1[O-])c1cccc(=O)n1[O-].[89Zr+4]` the intact complex was 98.4 ± 2.3% (radio-TLC; PBS; 1 h, pH 7.4, 37 °C, with: Ga^3+ 10-fold excess).
With `C[C@]12CC[C@@H]3c4ccc(OCC(=O)N[C@@H](CCCCNC(=O)CN5CCN(CC(=O)[O-])CCN(CC(=O)[O-])CCN(CC(=O)[O-])CC5)C(=O)O)cc4CC[C@H]3[C@@H]1CCC2=O.[177Lu+3]` the intact radiotracer was > 80% (radio-HPLC; human plasma; 4 h, 37 °C).
`O=C([O-])CN1CCN(CC(=O)[O-])CC(Cc2ccc(NC(=S)NCCOCCOCCOCCOCCOCCOCCOCCNC(=O)CCCC(=O)NCc3ccc(-c4nncnn4)cc3)cc2)N(CC(=O)[O-])CC1.[64Cu+2]` (centres unmarked) gave an intact compound of 77.8 ± 3.5% (human serum; 4 h, 37 °C).
For `O=C(O)CC[C@H](NC(=O)N[C@@H](CCC(=O)NCCCCCNC(=O)CN1CCNCCN(Cc2cccc(C(=O)[O-])n2)CC1)C(=O)[O-])C(=O)O.[64Cu+2]`, the intact complex was 88.7% (radio-HPLC; PBS; 12 h, room temperature).

Some of these lines once more:
For `O=C(O)CC[C@H](NC(=O)N[C@@H](CCC(=O)NCCCCCNC(=O)CN1CCNCCN(Cc2cccc(C(=O)[O-])n2)CC1)C(=O)[O-])C(=O)O.[64Cu+2]`, the intact complex was 88.7% (radio-HPLC; PBS; 12 h, room temperature).
